Measured values collected from several papers.
Every numbered part comes from another study and shows a few of its results, in no order.

Set 1
Target: Centromere-binding protein 1, full length, His-tagged (CBF1, Saccharomyces cerevisiae, UniProt P17106, residues 1-351)
UniProt P17106, sequence (whole entry, looked up): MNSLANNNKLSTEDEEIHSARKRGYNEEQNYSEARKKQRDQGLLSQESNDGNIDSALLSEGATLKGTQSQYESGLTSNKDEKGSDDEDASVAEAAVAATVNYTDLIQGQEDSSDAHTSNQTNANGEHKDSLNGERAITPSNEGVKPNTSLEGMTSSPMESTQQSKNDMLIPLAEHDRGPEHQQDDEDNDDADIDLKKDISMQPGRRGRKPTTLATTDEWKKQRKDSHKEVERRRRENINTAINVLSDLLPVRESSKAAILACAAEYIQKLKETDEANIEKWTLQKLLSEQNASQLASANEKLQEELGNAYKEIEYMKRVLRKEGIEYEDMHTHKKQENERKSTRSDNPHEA
Method: competition protein-binding microarray
Molecule type: double-stranded DNA, one strand shown
Sample: in vitro
Tested at: 2 µM
Notes: whole 60-bp probe, lowest competitor level
Added: Pho4 competitor, 0.05 µM
Direction: higher = stronger binding
Endpoint: fluorescence intensity
Oligonucleotide = GGTCGCACACACACCCCCGTGATGGGCGATATATAGGTCTTGATTCGCTTGACGCTGCTG; result = 237 a.u.
Oligonucleotide = CGTCCTAGTGATTTTCACGTGTAATCCATGAGGAAGGTCTTGATTCGCTTGACGCTGCTG; result = 859 a.u.
Oligonucleotide = TTCGAGACGAAGCATCACCTGATGGTAAACTATTGTGTCTTGATTCGCTTGACGCTGCTG; result = 531 a.u.

Set 2
Target: Interferon regulatory factor 7, full length, phosphomimetic (IRF7, Homo sapiens, UniProt Q92985, residues 1-503, S471D/S472D/S475D/S476D/S477D/S483D/S484D/S487D)
Method: protein-binding microarray
Molecule type: double-stranded DNA, one strand shown
Sample: in vitro
Tested at: 2200 nM top
Notes: 60-bp whole probe
Added: salmon DNA 0.4 mg/ml
Reference: random background probes
Direction: higher = stronger binding
Endpoint: fitted relative affinity
Shared flanks, not repeated: GCCTAGCAC … GTCTTGATTCGCTTGACGCTGCTG
Construct (chain): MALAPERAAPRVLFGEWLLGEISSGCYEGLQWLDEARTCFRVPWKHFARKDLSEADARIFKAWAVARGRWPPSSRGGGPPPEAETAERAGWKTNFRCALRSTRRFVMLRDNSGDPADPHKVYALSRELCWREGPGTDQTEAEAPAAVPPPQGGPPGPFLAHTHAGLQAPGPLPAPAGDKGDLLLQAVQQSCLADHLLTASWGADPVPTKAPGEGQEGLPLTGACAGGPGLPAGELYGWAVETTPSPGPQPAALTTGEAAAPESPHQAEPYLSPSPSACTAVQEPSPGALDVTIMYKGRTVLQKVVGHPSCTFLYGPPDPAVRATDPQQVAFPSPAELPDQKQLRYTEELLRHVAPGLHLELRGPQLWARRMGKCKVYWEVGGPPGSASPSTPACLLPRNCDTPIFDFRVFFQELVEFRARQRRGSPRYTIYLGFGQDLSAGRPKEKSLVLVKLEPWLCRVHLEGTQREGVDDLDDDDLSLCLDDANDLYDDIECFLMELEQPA
Oligonucleotide = TTAGGTTCCGGTTTCGGATAGTGCTAG; result = 5.69 z-score
Oligonucleotide = TCACCTTCCCCTCTAGGACTGTGCTAG; result = 1.77 z-score
Oligonucleotide = TCAAAAATAGAAACTCGTACTGTGCTA; result = -0.636 z-score
Oligonucleotide = TTAGGACTGGACACTGAGTTAGTGCTA; result = -0.672 z-score
Oligonucleotide = TTAGTTCTCGGTTTCGGTTAGTGCTAG; result = 7.85 z-score
Oligonucleotide = TTTTCTCTCCCATTCTGAATGTGCTAG; result = 3 z-score
Oligonucleotide = GAAGGTCTCGGTCTCGGGACGTGCTAG; result = -0.0737 z-score

Set 3
Target: Histone acetyltransferase KAT6A, winged helix 1, GST fusion (KAT6A, Homo sapiens, UniProt Q92794, residues 1-85)
Method: protein binding microarray
Molecule type: double-stranded DNA, one strand shown
Sample: in vitro
Tested at: not given
Notes: 8-mer, flanks averaged, mean of 2 arrays, mostly near background
Reference: not given
Direction: higher = stronger binding
Endpoint: E-score
Target sequence (chain): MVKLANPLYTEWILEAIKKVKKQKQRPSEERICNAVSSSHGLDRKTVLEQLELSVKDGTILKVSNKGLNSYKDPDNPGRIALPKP
Oligonucleotide = CTTCGAAA; result = -0.0684
Oligonucleotide = CTGACAAC; result = -0.0639
Oligonucleotide = ATGTGGTC; result = -0.215
Oligonucleotide = ATCCGCTC; result = 0.209
Oligonucleotide = GGTGGCGA; result = 0.102

Other studies, line by line
Molecule = PhoQ, residues 284 288 289 292 302 303 NLALSC; target = PhoP, residues 12 14 15 18 19 NYFRM (Escherichia coli, UniProt P23836); test = Sort-seq, refers to: YFP reporter; test system = E. coli; setting = PhoQ-PhoP variant library, added: 10 µM Mg2+; scale = reference: high Mg2+ state, higher = stronger signaling; endpoint = fold induction; result = 1.37

Excerpt of the above (set 1):
Oligonucleotide = CGTCCTAGTGATTTTCACGTGTAATCCATGAGGAAGGTCTTGATTCGCTTGACGCTGCTG; result = 859 a.u.
Oligonucleotide = TTCGAGACGAAGCATCACCTGATGGTAAACTATTGTGTCTTGATTCGCTTGACGCTGCTG; result = 531 a.u.
